Measurements from different studies.
Compare with care: the assays were run in different laboratories. ± gives the spread as reported.
Target: Cytochrome P450 2C19 (CYP2C19, Homo sapiens, UniProt P33261)
UniProt P33261, sequence (whole entry, looked up): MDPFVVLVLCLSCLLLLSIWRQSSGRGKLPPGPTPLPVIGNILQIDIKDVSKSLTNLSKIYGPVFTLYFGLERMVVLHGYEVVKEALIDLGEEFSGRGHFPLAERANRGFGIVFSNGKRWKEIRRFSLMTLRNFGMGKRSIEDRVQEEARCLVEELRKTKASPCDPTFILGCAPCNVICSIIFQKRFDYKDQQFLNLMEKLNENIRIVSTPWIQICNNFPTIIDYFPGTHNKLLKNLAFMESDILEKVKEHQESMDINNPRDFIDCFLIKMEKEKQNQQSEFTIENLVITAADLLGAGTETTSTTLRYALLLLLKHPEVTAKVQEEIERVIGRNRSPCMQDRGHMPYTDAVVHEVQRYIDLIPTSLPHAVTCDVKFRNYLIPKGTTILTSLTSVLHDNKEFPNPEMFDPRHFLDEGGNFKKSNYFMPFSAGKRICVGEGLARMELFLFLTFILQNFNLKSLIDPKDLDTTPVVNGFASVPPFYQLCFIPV

N#C[C@H](C[C@@H]1CCCNC1=O)NC(=O)[C@H](CC1CC1)NC(=O)c1cc2cccc(Cl)c2[nH]1 — half-life (NADPH metabolic stability; 2 µM, pH 7.4): > 0.167 h
Cc1cccc(F)c1N1CCC(N2Cc3cn(CC(C)(F)F)nc3N(Cc3ccccc3C(F)(F)F)C2=O)CC1 — omeprazole AUC increase (inhibitor; healthy male human; 100 mg, added: omeprazole 20 mg single dose; baseline: omeprazole alone): 1.9 fold
CC(C)=CCc1c(O)cc(O)c2c1O[C@H](c1ccc(O)cc1)CC2=O — inhibition (1 µM, pH 7.4): 43.8 ± 0.2%
C=CC(=O)N(C)CCOc1c(N)ncnc1-c1cc(F)cc(NC(=O)c2ccc(C3CC3)cc2F)c1C — fraction metabolised by CYP (recombinant human CYP): 1%
COc1ccc2[nH]c([S+]([O-])Cc3ncc(C)c(OC)c3C)nc2c1 (centres unmarked) — AUClast increase (human, plasma; oral, 20 mg, added: single dose encorafenib and binimetinib; baseline: Day -7 probe alone): ~26%
COc1cc(O)c(CC=C(C)C)c2c1C(=O)CC(c1ccc(O)cc1)O2 (centres unmarked) — inhibition (enzyme activity, inhibitor; human liver microsomes; 10 µM, pH 7.4, added: (S)-mephenytoin): > 90%
COc1ccc2[nH]c([S+]([O-])Cc3ncc(C)c(OC)c3C)nc2c1 (centres unmarked) — Tmax (measured: 5-hydroxyomeprazole; human healthy subjects, plasma; oral, alone, median, added: midazolam): 4 h
COc1ccc2nc([S+]([O-])Cc3ncc(CO)c(OC)c3C)[nH]c2c1 (centres unmarked) — metabolite to parent Cmax ratio (human, plasma; oral, 20 mg omeprazole, probe alone Day -7; baseline: 5-hydroxyomeprazole over omeprazole): 0.273

For quick reference, copied from above:
COc1ccc2nc([S+]([O-])Cc3ncc(CO)c(OC)c3C)[nH]c2c1 (centres unmarked) — metabolite to parent Cmax ratio (human, plasma; oral, 20 mg omeprazole, probe alone Day -7; baseline: 5-hydroxyomeprazole over omeprazole): 0.273
